Experimental data gathered from unrelated publications.
Parts stem from different laboratories: compare values within a part only. Changes are numbered by the printed parent chain.

Sample 1
Target: Sal-like protein 4, full length isoform A (SALL4, Homo sapiens, UniProt Q9UJQ4, residues 1-1053)
Sequence of UniProt Q9UJQ4 (whole entry, looked up): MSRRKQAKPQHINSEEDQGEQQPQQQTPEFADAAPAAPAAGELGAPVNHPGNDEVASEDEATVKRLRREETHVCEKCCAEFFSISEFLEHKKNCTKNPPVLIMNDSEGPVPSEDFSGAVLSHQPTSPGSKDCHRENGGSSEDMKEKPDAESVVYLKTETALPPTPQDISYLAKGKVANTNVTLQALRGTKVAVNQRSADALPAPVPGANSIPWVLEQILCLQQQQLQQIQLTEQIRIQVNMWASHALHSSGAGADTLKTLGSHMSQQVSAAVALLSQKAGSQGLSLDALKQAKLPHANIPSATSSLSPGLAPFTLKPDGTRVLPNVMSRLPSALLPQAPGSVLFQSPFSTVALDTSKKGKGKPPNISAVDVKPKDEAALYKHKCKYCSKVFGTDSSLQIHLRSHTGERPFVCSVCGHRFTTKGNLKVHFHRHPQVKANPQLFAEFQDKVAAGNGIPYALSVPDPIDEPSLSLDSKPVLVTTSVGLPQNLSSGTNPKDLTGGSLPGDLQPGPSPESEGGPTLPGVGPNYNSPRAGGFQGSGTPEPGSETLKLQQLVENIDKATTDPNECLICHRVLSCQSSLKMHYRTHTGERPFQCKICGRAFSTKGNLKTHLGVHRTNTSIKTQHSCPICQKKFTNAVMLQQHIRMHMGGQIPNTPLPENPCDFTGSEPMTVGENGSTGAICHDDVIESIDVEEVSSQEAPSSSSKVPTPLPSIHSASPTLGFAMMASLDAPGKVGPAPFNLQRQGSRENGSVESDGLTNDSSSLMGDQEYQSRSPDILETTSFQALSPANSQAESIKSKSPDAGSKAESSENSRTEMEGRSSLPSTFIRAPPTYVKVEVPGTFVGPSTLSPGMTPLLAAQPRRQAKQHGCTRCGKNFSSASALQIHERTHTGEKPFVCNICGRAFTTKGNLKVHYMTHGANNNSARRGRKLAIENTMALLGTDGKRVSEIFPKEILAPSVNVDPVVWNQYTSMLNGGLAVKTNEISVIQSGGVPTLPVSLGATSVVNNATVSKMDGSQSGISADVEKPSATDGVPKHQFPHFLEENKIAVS
Method: universal PBM
Form: double-stranded DNA, one strand shown
Matrix: in vitro
Concentration: 600 nM
Setting: 8-mer, flanks averaged, mean of replicates
Reading: higher = stronger binding
Sequence | E-score
ACGTGAAG | 0.0651
CGTTTCGA | -0.0211
ATAATGTC | 0.209
CACCAATA | 0.201
ACAAGGCG | -0.191
CAAATTGA | 0.00696
CTAAGTGA | 0.00313
ACTATGCG | 0.0205
GAGTTATC | 0.148
AGCACACA | -0.177
CTACGTAC | 0.13
AACCCGCG | -0.323
CCCAAGCG | -0.314
GGACACAC | -0.223
CGAGACCG | -0.271
GGATGTGA | 0.0132

Sample 2
Target: Prothrombin, mature alpha-thrombin (F2, Homo sapiens, UniProt P00734)
Method: aptamer microarray, sandwich
Form: DNA with 2'F-ANA
Matrix: in vitro
Concentration: 200 nM
Setting: whole 15-mer aptamer, many near background
Added: Cy3 exosite-II aptamer, 400 nM
Reading: higher = stronger binding
Sequence: GGTTGGTGTGGTTGG
Modification | mean fluorescence intensity [a.u.]
2'F-ANA at 6 7 8 9 10 11 | 154
2'F-ANA at 2 3 4 9 10 13 15 | 213
2'F-ANA at 1 2 4 5 9 10 14 | 48.4
2'F-ANA at 1 3 4 6 7 9 11 12 | 267
2'F-ANA at 2 4 6 8 9 10 11 15 | 65.5
2'F-ANA at 2 3 5 6 8 10 15 | 76.7
2'F-ANA at 1 4 5 7 8 10 14 | 46.4
2'F-ANA at 3 4 5 7 8 10 11 12 14 | 52
2'F-ANA at 1 3 4 7 10 11 12 13 14 | 49.5
2'F-ANA at 1 2 3 4 5 6 8 13 14 15 | 42.7
2'F-ANA at 7 9 12 13 | 672
2'F-ANA at 1 3 6 8 9 | 322
2'F-ANA at 2 6 7 9 11 13 | 243
2'F-ANA at 4 5 6 7 | 66.1
2'F-ANA at 1 2 4 5 6 7 10 11 12 14 | 46.9
2'F-ANA at 1 2 5 6 10 12 13 15 | 50.7
2'F-ANA at 3 6 7 9 11 12 13 15 | 962
2'F-ANA at 2 3 4 5 6 8 9 10 15 | 50.9
2'F-ANA at 3 5 6 | 217

Sample 3
Target: RNA binding protein fox-1 homolog 2, RRM domain, GST-SBP tag (RBFOX2, Homo sapiens, UniProt O43251-10, residues 100-194)
Method: RNA Bind-n-Seq
Form: RNA
Matrix: in vitro
Concentration: 365 nM
Setting: natural RNA segment, single round, ends assumed
Relative to: no-protein control
Reading: higher = stronger binding
Target sequence (chain): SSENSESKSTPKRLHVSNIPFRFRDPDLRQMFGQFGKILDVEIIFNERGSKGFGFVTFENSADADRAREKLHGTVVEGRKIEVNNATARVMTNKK
Sequence | RBNS enrichment (R)
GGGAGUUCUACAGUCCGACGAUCCUUUCUUAAGGGCCAAGAAAGCAACUUGAGCCUUGGGCUAAUCUGGCUGAGUAGUCAGUUAUAAAAGCAUAAUUGCUUUAUAUUUUGGAUCAUUUUUUACUGGGGGCGGAUGGAAUUCUCGGGUGCCAA | 0.506
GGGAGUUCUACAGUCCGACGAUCAAGGGGGUUUGAAGCCCACCAAGACCGAAACUGGAGAAGGGCUGGACCUGGACCUGGACCUGGACCUACAGCGGGGACUUAAAUGCCUUCUUAUCCAAUAUAUCUUCUCAUGGAAUUCUCGGGUGCCAA | 0.223
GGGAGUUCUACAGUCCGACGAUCGAAGUGGCUCAACAGGAGGAGCCUGAGUUGUGGGGUCUAUGGAUGGCAACCAGCUGAUUCUGUACAGGGUACACUUGACUGUGGGUAUGCAGGUGGCAGCUGCAGCCCUCUGGAAUUCUCGGGUGCCAA | 1.36
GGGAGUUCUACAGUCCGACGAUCUGGAAAACCUCUCCACUGGAGAGGUUUCAUCUCUGAGAGGUUUUGUAAUAAUAGUGUAAGUUCAGUAAAUCCAGUCCAAAUUCUCAUCACAUGUAUUAUUUGAUACUAAAUGGAAUUCUCGGGUGCCAA | 0.783
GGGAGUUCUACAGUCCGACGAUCAAAAAAAAAGUUCAAGAUAAUUAAGAGUUGCCAGCUCGUUAAAGCUAAGUAGAAGCAGUCUCAGGCCUGCUGCUUGAGGCUGUUCUUGGCUUGGACCUGAAAUCUGCCCCUGGAAUUCUCGGGUGCCAA | 0.459
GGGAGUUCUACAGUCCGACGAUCAGCAUCCUUGGUCAUCAUUGUCUCCUUCCCACCUGGCCCAGAGAUGCUUAAAUCCAAGUUGUUUCUCCAGCUGUCACCUCCCCCAGGAGAUCAGGAUUCCACUGACGUCCUGGAAUUCUCGGGUGCCAA | 0.506
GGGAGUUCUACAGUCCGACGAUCUGAAGAGAGCUGAUGGCAAGUCUUGUAGUCAUUUUGAUUUUAAUUGAAGGGUGAGCAUAACCUUGUGAACCAGCACUAGCUUGUUCCAAGCUGGAAUUUAUCUAAUCUAUUGGAAUUCUCGGGUGCCAA | 0.337
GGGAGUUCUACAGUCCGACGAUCGUGAACGUUAGCUUUUCUCAAACCCACACAAAUCCUUGAACAGGAAUUGUUUAUAGUGACCACACUAAUUAUUUUAACUGUACACAUCAGUUUAACAUCUUUUAAAAUUUUGGAAUUCUCGGGUGCCAA | 0.699
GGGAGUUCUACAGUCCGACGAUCGAGAAAAGCCUAGACUUUUAGUUGAUAGCCAGUUGAAAUAUCAUUGAUAGAAUUUUAGUUUUAGGAAAAAUUGGUUUGAUUUCUAGCUUUAUUACUAUUAGGUAUGUGAGUGGAAUUCUCGGGUGCCAA | 0.703
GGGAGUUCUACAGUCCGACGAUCUACCGACAUUCCCCCAAGUUGUCCUCUAACCUCCACAUGUGUGCUGUGGUAUGUGUGUUCUCACGUGUGUGUGCACAUACACACACACACGCAUAUCAAUUAAUUUAAAAUGGAAUUCUCGGGUGCCAA | 0.646
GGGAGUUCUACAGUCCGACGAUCAAAGCUGAAGCACGUUUCAUAUGAAGCCAGUUCAGUGGCCUUGUUUAUUUCAAGACAAUGCCUUAUAUCACAUUGGAGGAGUUUGAAUACUUAACAGGUUCUUUGUCAACUGGAAUUCUCGGGUGCCAA | 0.306
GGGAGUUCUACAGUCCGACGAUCGGCUGCCUGCAGGCUCCCGUUUUCUGAGCCCACGCUGCCCACAGCUGACCCCAGCGCAGCCCCGGGCACGCGGCACUUUACAUGGGGGCAGCUUGGGCCCAGACUCCUCCUGGAAUUCUCGGGUGCCAA | 0.388

Sample 4
Target: UBE2E1 UBC core domain (UniProt P51965)
Sequence of UniProt P51965 (whole entry, looked up): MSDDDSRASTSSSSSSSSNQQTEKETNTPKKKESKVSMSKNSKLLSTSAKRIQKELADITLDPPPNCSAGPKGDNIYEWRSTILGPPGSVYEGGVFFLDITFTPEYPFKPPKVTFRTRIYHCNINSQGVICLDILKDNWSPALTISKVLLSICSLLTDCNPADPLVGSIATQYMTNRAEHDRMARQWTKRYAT
Method: yeast two-hybrid
Matrix: yeast
Setting: mostly zero background
Relative to: not given
Reading: higher = stronger interaction
B1: MSL2 RING domain (UniProt Q9HCI7); chain LLPYFRQSLSCCVCGHLLQDPIAPTNSTCQHYVCKTCKGKKMMMKPSCSWCKDYEQFEENKQ
B2: NSMCE1 RING domain (UniProt Q8WV22); chain RETYPDAVKICNICHSLLIQGQSCETCGIRMHLPCVAKYFQSNAEPRCPHCNDYWPHEIPKV
B3: TRIM15 RING domain (UniProt Q9C019); chain SLKVVHELPACTLCAGPLEDAVTIPCGHTFCRLCLPALSQMGAQSSGKILLCPLCQEEEQAETPMA
B4: RNF32 RING domain (UniProt Q9H0A6); chain SLLQGDSVQPCPICKEEFELRPQVLLSCSHVFHKACLQAFEKFTNKKTCPLCRKNQYQTRVIH
B5: RNF149 RING domain (UniProt Q8NC42); chain EKGIDVDAENCAVCIENFKVKDIIRILPCKHIFHRICIDPWLLDHRTCPMCKLDVIKALGYW
B6: ANKIB1 RING domain (UniProt Q9P2G1); chain LSPGDLDTSLCDICMCSISVFEDPVDMPCGHDFCRGCWESFLNLKIQEGEAHNIFCPAYDCFQLVPVDIIE
B7: RNF150 RING domain (UniProt Q9ULK6); chain DKETESDFDNCAVCIEGYKPNDVVRILPCRHLFHKSCVDPWLLDHRTCPMCKMNILKALGIP
Molecule | lacZ reporter activity
B1 (MSL2 RING domain) | 0
B2 (NSMCE1 RING domain) | 0
B3 (TRIM15 RING domain) | 0
KIKDLNEHIVCCLCAGYFVDATTITECLHTFCKSCIVKYLQTSKYCPMCNIKIHETQPLL (PCGF1 RING domain (UniProt Q9BSM1)) | 0
B4 (RNF32 RING domain) | 0
FLKKLEQSFMCVCCQELVYQPVTTECFHNVCKDCLQRSFKAQVFSCPACRHDLGQNYIMI (UHRF2 RING domain (UniProt Q96PU4)) | 0
B5 (RNF149 RING domain) | 0
B6 (ANKIB1 RING domain) | 0
B7 (RNF150 RING domain) | 8330

Sample 5
Target: CCNB3, cyclin fold, Cln2 fusion (human)
Method: yeast growth competition, sequencing
Matrix: yeast
Setting: weak parent motif
Relative to: not given
Reading: higher = stronger binding
Starting sequence: CDKN1B docking peptide (human); PSACRNLFGPVDH
Change | normalised enrichment score
C4P | 0.302
A3S | 0.296
R5K F8L | 0.23
V11S | 0.518
D12P | 0.306
G9M | 0.373
H13I | 0.425
P1N | 0.565
P1K | 0.669
D12Q | 0.52
P10W | 0.328
P10Y | 0.356
H13M | 0.326
V11N | 0.404

Sample 6
Target: FOSL2, bZIP domain (human)
Method: DHFR protein complementation
Matrix: yeast
Setting: single substitutions, most at no-binding floor
Relative to: wild-type JUN-FOS pair
Reading: higher = stronger binding
Starting sequence: JUN, bZIP domain (human); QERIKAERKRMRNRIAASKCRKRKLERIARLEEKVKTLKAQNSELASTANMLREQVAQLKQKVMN; partner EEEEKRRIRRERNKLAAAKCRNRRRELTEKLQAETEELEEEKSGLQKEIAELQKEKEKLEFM
Change | binding fitness [natural log]
L52D | -1.43
R53T | -0.472
A46F | -0.0553
M51E | 0.0852
N42R | -0.139
M51H | 0.0836
Q41S | -1.45
R53P | -1.43
K34P | -1
S43K | 0.239
S43C | 0.0236
E33D | -0.00156

Sample 7
Target: Histone acetyltransferase KAT6A, winged helix 2, GST fusion (KAT6A, Homo sapiens, UniProt Q92794, residues 85-181)
Method: protein binding microarray
Form: double-stranded DNA, one strand shown
Matrix: in vitro
Concentration: not given
Setting: 8-mer, flanks averaged, mean of 2 arrays, mostly near background
Relative to: not given
Reading: higher = stronger binding
Construct (chain): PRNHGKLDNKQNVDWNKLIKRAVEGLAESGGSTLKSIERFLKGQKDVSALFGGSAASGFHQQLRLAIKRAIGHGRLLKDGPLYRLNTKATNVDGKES
Sequence | E-score
CAGCAGTA | 0.0401
GGAAGGCA | 0.169
CAATTCGC | 0.151
CAGTAGGG | -0.0912
CTTAGGTA | -0.231
CCCGAAGC | 0.193
AAAGGGCT | 0.000295
CCCCATTA | -0.215
ATCCGAAG | -0.0786
ATTTTTGG | 0.0463
GCCGATAC | -0.126
ATCCATCC | 0.0442
CCTGAAAC | 0.0984
CAGCACTC | -0.0424
AAACCCGG | 0.169
CAAGAGAG | 0.117
CCGGTCCC | 0.237
ATTACGAA | 0.00128
GTGCCCGA | 0.0282
ACAGTAAT | -0.0821
AGGGTCCC | -0.0076
CACCACCA | 0.049
GCAGCCCC | 0.188
TCATTCAA | -0.0608
CGCACAGC | 0.252

Sample 8
Target: ABI1, truncated, D143A, DHFR fusion (Arabidopsis thaliana)
Method: DHFR PCA, deep sequencing
Matrix: yeast
Setting: methotrexate growth selection, single substitutions
Added: (+)-ABA 4.8 µM
Relative to: wild-type fitted maximum
Reading: higher = stronger binding
Starting sequence: PYL1, truncated, DHFR fusion (Arabidopsis thaliana); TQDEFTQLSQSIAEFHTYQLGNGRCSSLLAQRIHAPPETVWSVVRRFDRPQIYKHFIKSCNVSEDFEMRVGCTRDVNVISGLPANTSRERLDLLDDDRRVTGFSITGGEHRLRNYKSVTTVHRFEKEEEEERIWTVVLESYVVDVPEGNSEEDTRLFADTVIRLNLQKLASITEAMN; partner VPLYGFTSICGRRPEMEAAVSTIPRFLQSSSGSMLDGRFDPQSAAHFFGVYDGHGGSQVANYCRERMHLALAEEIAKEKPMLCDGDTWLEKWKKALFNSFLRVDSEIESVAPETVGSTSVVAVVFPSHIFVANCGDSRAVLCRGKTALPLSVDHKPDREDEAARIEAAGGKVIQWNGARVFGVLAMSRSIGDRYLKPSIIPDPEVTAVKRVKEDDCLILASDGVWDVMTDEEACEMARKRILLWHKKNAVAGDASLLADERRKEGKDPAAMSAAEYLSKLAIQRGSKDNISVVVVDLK
Change | relative binding score [%]
V142A | 57.8
V145H | -0.326
R99S | 9.26
T1M | 74.8
D3C | 60.1
T119N | -4.06
I33N | -34.8
P146A | 40.9
F124E | 55.8
K126M | 86.8
L93D | 2.16
F56P | 10.5
A30F | 74.8
L112Y | -0.222
A84L | 6.99
K58Y | 32.2
S140A | -6.31

Some of these lines once more (sample 1):
Sequence | E-score
CACCAATA | 0.201
ACAAGGCG | -0.191
CAAATTGA | 0.00696
CTAAGTGA | 0.00313
ACTATGCG | 0.0205
GAGTTATC | 0.148
